Measurements of several laboratories.
Compare with care: the assays were run in different laboratories. Values joined by “and” are separate records of one study, mostly repeats; a detail may differ. Numbers after ± are the reported error.

Structure (SMILES)	assay	system	setting	how to read	quantity	value
CC(=O)N1CCC[C@H](O)[C@H]1CC(=O)Cn1cnc2cc(Br)c(Cl)cc2c1=O (relative stereo)	luciferase translation	rabbit reticulocyte lysate	concentration not given	–	translation	inactive
CSCC[C@H](NC(=O)[C@H](CO)NC(=O)[C@@H](N)CO)C(=O)N[C@@H](CCCCN)C(=O)N[C@@H](CC(C)C)C(=O)N[C@@H](CO)C(=O)N[C@@H](Cc1ccccc1)C(=O)N[C@@H](CCCNC(=N)N)C(=O)N[C@@H](C)C(=O)N[C@@H](CCCNC(=N)N)C(=O)N[C@@H](C)C(=O)N[C@@H](Cc1ccc(O)cc1)C(=O)NCC(=O)N[C@@H](Cc1ccccc1)C(=O)N[C@@H](CCCNC(=N)N)C(=O)NCC(=O)N1CCC[C@H]1C(=O)NCC(=O)N1CCC[C@H]1C(=O)N[C@@H](CCC(N)=O)C(=O)N[C@@H](CC(C)C)C(=O)O	oral glucose tolerance test	DIO mouse	oral, 2 µg/g, 0 min, day 1, 8 h fast	–	blood glucose	143 ± 8.84 mg/dL
Cc1cc(O)c(C=O)c2c1C(=O)Oc1c(CO)c(O)c3c(c1O2)C(O)OC3=O (stereo not drawn)	–	streptozotocin-diabetic male albino rats, serum	dose not given, 9 weeks	reference: diabetic control	LH level	increased
Cc1nc(C)c(C=[N+]([O-])C(C)(C)C)nc1C	Western blot, item: Nrf2	mouse, MPTP model, substantia nigra nuclei	90 mg/kg	–	protein level increase	41.2%
CCCOC(=O)Cc1c(C)n(C(=O)c2ccc(Cl)cc2)c2ccc(OC)cc12	hot plate test	BALB/c mice	75 mg/kg, 30 min	–	latency of nociceptive response	17.2 ± 1.71 s
CC(C)c1cnc(-c2cc(Cl)ccc2F)cc1Nc1ccncc1C(=O)NC(CO)CO	–	human	250 mg	–	PSA decrease	48.9%
C#CC[C@H](N)C(=O)O	L-cysteine-induced relaxation	rat, isolated aortic rings	together with: phenylephrine precontraction	–	inhibitory concentration	5 mM
OC[C@H]1O[C@@H](Oc2ccc(O)cc2)[C@H](O)[C@@H](O)[C@@H]1O	–	zebrafish AB wild type, head melanin	60 µM, 45 h, from 6 hpf	–	pigmentation inhibition	11.4 ± 3.45%
CN(C)C(=O)c1ccnc(N2Cc3cn(Cc4ccc(F)cc4F)nc3C2)n1	myelinated axon density, electron microscopy	mouse cuprizone diet, corpus callosum	unit not given	reference: control-diet-fed mice	effect size d	-0.09
NC(=O)[C@@H](CCCCNC(=O)CNC(=O)CCC(=O)NCCc1c[nH]cn1)NC(=O)[C@@H](CCC(=O)O)NC(=O)[C@@H](CCCCNC(=O)CNC(=O)CCC(=O)NCCc1c[nH]cn1)NC(=O)[C@@H](Cc1ccc(O)cc1)NC(=O)CN1CCN(CC(=O)O)CCN(CC(=O)O)CCN(CC(=O)O)CC1 [gallium-68 labelled]	PET/CT	nude BALB/c mouse, LS174T xenograft	dose not given, together with: TF2 6.0 nmol pretargeting	reference: abdomen	tumour-to-background ratio	38.2
C=C(c1ncc(C(=O)O)cn1)c1cc2c(cc1C)C(C)(C)CCC2(C)C	RNA sequencing, item: Scd1	rat, brain	dose not given, 24 h	reference: vehicle	log2 fold change	-1.35
CC(C)=CCCC(C)=CCc1cc(-c2coc3cc(OC4OC(C(=O)O)C(O)C(O)C4O)ccc3c2=O)ccc1O (stereo not drawn)	glucuronidation, substrate	rabbit liver microsomes	–	–	Vmax	2860 ± 249 pmol/min/mg
Cc1cc2c(cc1C1(c3ncc(C(=O)O)cn3)CC1)C(C)(C)CCC2(C)C	RNA sequencing, item: Cyp26a1 mRNA	rat, brain	dose not given, 24 h, single dose	reference: vehicle	log2 fold change	0.002
CCc1nc(-c2ccc(-c3ccc(CCC(N)(CO)CO)cc3)cc2)co1	phosphorylation	human whole blood	60 min, 37 °C, up to 100 µM	–	Vmax	1.11 ± 0.28 pmol/min
COC1CCC(N(C(=O)C2CCC(C)CC2)c2cc(C3=CCCCC3)sc2C(=O)O)CC1 (stereo not drawn)	–	Solanum lycopersicum seedlings	10 or 30 µM, no sugar, mannitol medium	–	hypocotyl length	no effect
CC(=O)[O-].O.O.[O-]c1ccc(Br)cc1C=NCCN1CCOCC1.[Zn+2]	FRAP	–	240 µM	–	ferric reducing power	56.4%
CN(C)c1ccc2c(-c3cc(C(=O)N4CCN(CCCOc5ccc6nccc(C(=O)NCC(=O)N7CC(F)(F)C[C@H]7C#N)c6c5)CC4)ccc3C(=O)[O-])c3ccc(=[N+](C)C)cc-3oc2c1	flow cytometry	mouse B16-F10 tumour, tumour	intravenous, dose not given, 1 h	–	probe signal in stromal cells	~80%
CC[C@H](C)[C@@H]1NC(=O)[C@H](Cc2ccc(O)cc2)NC(=O)[C@@H](N)CSSC[C@@H](C(=O)NCC(=O)N[C@@H](CCCCNC(=O)COCCOCCNC(=O)COCCOCCNC(=O)CC[C@H](NC(=O)CC[C@H](NC(=O)CCCCCCCCCCCCCCCCC(=O)O)C(=O)O)C(=O)O)C(=O)NCC(N)=O)NC(=O)[C@H](CC(N)=O)NC(=O)[C@H](CCC(N)=O)NC1=O	–	C57BL/6 mice, diet-induced obese	subcutaneous, 2 µmol/kg daily, 14 days	reference: vehicle	body weight change	-6.7 ± 1.7%
CC(C)OC(=O)[C@H](CO)NCc1cc(Cl)c(OCc2cccc(-c3ccccc3)c2Br)cc1OCc1cccnc1	flow cytometry	humanized PD-1 C57BL/6 mice, hPD-L1 MC-38 tumour, tumour	dose not given	–	tumour-infiltrating CD4+ and CD8+ T cells	increased
COc1ccc(C2NC(=O)NC(C)=C2C(C)=O)cc1 (stereo not drawn)	FRAP	–	–	reference: gallic acid	antioxidant potency ratio	~3.8 fold and ~3.7 fold
O=C(O)C1OC(Oc2cccc(-c3nc(N4CCOCC4)c4oc5ncccc5c4n3)c2)C(O)C(O)C1O (stereo not drawn)	glucuronide formation	minipig liver microsomes	–	–	Vmax	373 ± 10.8 pmol/min/mg
CCCCCCCCCCCCCCCC(=O)NCCCC[C@H](N)C(=O)N[C@@H](CC(=O)O)C(=O)N[C@H](C(=O)N[C@@H](Cc1c[nH]cn1)C(=O)N[C@@H](Cc1ccccc1)C(=O)N[C@@H](CCCNC(=N)N)C(=O)N[C@H](C(=O)N[C@@H](Cc1ccccc1)C(=O)N[C@@H](CCCNC(=N)N)C(=O)N[C@@H](CO)C(=O)N[C@@H](Cc1c[nH]cn1)C(=O)N[C@@H](CO)C(=O)N[C@@H](CC(=O)O)C(=O)N[C@@H](Cc1ccc(O)cc1)C(=O)N[C@@H](CCCNC(=N)N)C(=O)N[C@@H](CCCNC(=N)N)C(=O)N[C@H](C(=O)O)[C@@H](C)CC)[C@@H](C)O)[C@@H](C)O	–	C57BL/6J mouse, MCD diet	intraperitoneal, 1.2 nmol/g, 3 weeks, 3 times weekly	–	serum ALT	177 ± 43.7 IU/L
CC[C@H]1[C@@H](O)[C@@H]2[C@H](CC[C@]3(C)[C@@H]([C@H](C)CCOS(=O)(=O)[O-])CC[C@@H]23)[C@@]2(C)CC[C@@H](O)C[C@@H]12.[Na+]	–	ob/ob NASH mice, blood	oral, 10 mg/kg once daily, week 8	–	fed blood glucose	7.3 ± 0.3 mmol/L
COC(=O)[C@H](CSSC(C)(C)[C@H](NC(=O)[C@H](CCC(=O)NC[C@H](O)[C@@H](O)[C@H](O)[C@H](O)CO)NC(=O)[C@H](CCC(=O)O)NC(=O)[C@H](CCC(=O)NC[C@H](O)[C@@H](O)[C@H](O)[C@H](O)CO)NC(=O)[C@H](CCC(=O)O)NC(=O)[C@H](CCC(=O)NC[C@H](O)[C@@H](O)[C@H](O)[C@H](O)CO)NC(=O)CC[C@H](NC(=O)c1ccc(NCc2cnc3nc(N)[nH]c(=O)c3n2)cc1)C(=O)O)C(=O)O)NC(=O)CC[C@H](NC(=O)c1ccc(NCc2cnc3nc(N)nc(N)c3n2)cc1)C(=O)O	–	Lewis rat, adjuvant-induced arthritis	500 nmol/kg twice weekly × 2	direction not given	summed histological score decrease	~85%
N=C(N)NCCC[C@@H]1NC(=O)[C@H](CCCNC(=N)N)NC(=O)[C@H](CCCNC(=N)N)NC(=O)[C@H](Cc2ccc3ccccc3c2)NC(=O)[C@H](Cc2c[nH]c3ccccc23)NC(=O)[C@H](Cc2ccc3ccccc3c2)NC(=O)[C@H](CCCNC(=N)N)NC1=O	–	mammalian-mimic liposomes	concentration not given, 100 min	–	calcein leakage	20.2%
COc1ccc(C2CC(c3ccc(C)cc3)=Nc3ccccc3S2)cc1 (stereo not drawn)	–	Wistar rat, STZ-induced diabetes, serum	20 mg/kg, 28 days	–	LDL cholesterol	106 mg/dL
COc1cc(C(=O)OCCCN2CCCN(CCCOC(=O)c3cc(OC)c(OC)c(OCc4ccc([N+](=O)[O-])cc4)c3)CC2)cc(OC)c1OC	von Frey test	mouse, CFA inflammatory pain	intraplantar, 10 µg	–	duration of analgesic effect	> 5 h

Excerpt of the above:
Structure (SMILES)	assay	system	setting	how to read	quantity	value
CC(C)c1cnc(-c2cc(Cl)ccc2F)cc1Nc1ccncc1C(=O)NC(CO)CO	–	human	250 mg	–	PSA decrease	48.9%
Cc1nc(C)c(C=[N+]([O-])C(C)(C)C)nc1C	Western blot, item: Nrf2	mouse, MPTP model, substantia nigra nuclei	90 mg/kg	–	protein level increase	41.2%
CCCOC(=O)Cc1c(C)n(C(=O)c2ccc(Cl)cc2)c2ccc(OC)cc12	hot plate test	BALB/c mice	75 mg/kg, 30 min	–	latency of nociceptive response	17.2 ± 1.71 s
CN(C)C(=O)c1ccnc(N2Cc3cn(Cc4ccc(F)cc4F)nc3C2)n1	myelinated axon density, electron microscopy	mouse cuprizone diet, corpus callosum	unit not given	reference: control-diet-fed mice	effect size d	-0.09
